Measurements collected from several papers.
Lines come from different studies, so protocols differ. Numbers after ± are the reported error.
Method: steady-state kinetics
B1: POLK (Homo sapiens, UniProt Q9UBT6); chain MDSTKEKCDSYKDDLLLRMGLNDNKAGMEGLDKEKINKIIMEATKGSRFYGNELKKEKQVNQRIENMMQQKAQITSQQLRKAQLQVDRFAMELEQSRNLSNTIVHIDMDAFYAAVEMRDNPELKDKPIAVGSMSMLSTSNYHARRFGVRAAMPGFIAKRLCPQLIIVPPNFDKYRAVSKEVKEILADYDPNFMAMSLDEAYLNITKHLEERQNWPEDKRRYFIKMGSSVENDNPGKEVNKLSEHERSISPLLFEESPSDVQPPGDPFQVNFEEQNNPQILQNSVVFGTSAQEVVKEIRFRIEQKTTLTASAGIAPNTMLAKVCSDKNKPNGQYQILPNRQAVMDFIKDLPIRKVSGIGKVTEKMLKALGIITCTELYQQRALLSLLFSETSWHYFLHISLGLGSTHLTRDGERKSMSVERTFSEINKAEEQYSLCQELCSELAQDLQKERLKGRTVTIKLKNVNFEVKTRASTVSSVVSTAEEIFAIAKELLKTEIDADFPHPLRLRLMGVRISSFPNEEDRKHQQRSIIGFLQAGNQALSATECTLEKTDKDKFVKPLEMSHKKSFFDKKRSERKWSHQDTFKCEAVNKQSFQTSQPFQVLKKKMNENLEISENSDDCQILTCPVCFRAQGCISLEALNKHVDECLDGPSISENFKMFSCSHVSATKVNKKENVPASSLCEKQDYEAHPKIKEISSVDCIALVDTIDNSSKAESIDALSNKHSKEECSSLPSKSFNIEHCHQNSSSTVSLENEDVGSFRQEYRQPYLCEVKTGQALVCPVCNVEQKTSDLTLFNVHVDVCLNKSFIQELRKDKFNPVNQPKESSRSTGSSSGVQKAVTRTKRPGLMTKYSTSKKIKPNNPKHTLDIFFK
B2: enzyme (Arabidopsis thaliana, UniProt Q9LTH2); chain MEEKQVKETRIVLVPVPAQGHVTPMMQLGKALHSKGFSITVVLTQSNRVSSSKDFSDFHFLTIPGSLTESDLQNLGPQKFVLKLNQICEASFKQCIGQLLHEQCNNDIACVVYDEYMYFSHAAVKEFQLPSVVFSTTSATAFVCRSVLSRVNAESFLIDMKDPETQDKVFPGLHPLRYKDLPTSVFGPIESTLKVYSETVNTRTASAVIINSASCLESSSLARLQQQLQVPVYPIGPLHITASAPSSLLEEDRSCVEWLNKQKSNSVIYISLGSLALMDTKDMLEMAWGLSNSNQPFLWVVRPGSIPGSEWTESLPEEFNRLVSERGYIVKWAPQMEVLRHPAVGGFWSHCGWNSTVESIGEGVPMICRPFTGDQKVNARYLERVWRIGVQLEGDLDKETVERAVEWLLVDEEGAEMRKRAIDLKEKIETSVRSGGSSCSSLDDFVNSM
B3: GTPBP3 A162P (Homo sapiens, UniProt Q969Y2); chain TRRSSGAPAPGSGATIFALSSGQGRCGIAVIRTSGPASGHALRILTAPRDLPLARHASLRLLSDPRSGEPLDRALVLWFPGPQSFTGEDCVEFHVHGGPAVVSGVLQALGSVPGLRPAEAGEFTRRAFANGKLNLTEVEGLPDLIHAETEAQRRQALRQLDGELGHLCRGWAETLTKALAHVEAYIDFGEDDNLEEGVLEQADIEVRALQVALGAHLRDARRGQRLRSGVHVVVTGPPNAGKSSLVNLLSRKPVSIVSPEPGTTRDVLETPVDLAGFPVLLSDTAGLREGVGPVEQEGVRRARERLEQADLILAMLDASDLASPSSCNFLATVVASVGAQSPSDSSQRLLLVLNKSDLLSPEGPGPGPDLPPHLLLSCLTGEGLDGLLEALRKELAAVCGDPSTDPPLLTRARHQHHLQGCLDALGHYKQSKDLALAAEALRVARGHLTRLTGGGGTEEILDIIFQDFCVGK
B4: enzyme (UniProt A0A2T5C445); chain MKSKQLNTDLFKVQAKQQIRLKNYDPASCNGFANRKEAEHQLKQDIKELADLQYQLYAENKRSVLIVFQAMDAAGKDGSIRHVFSGLNPQGCKVYSFKSPSANELDHDYLWRHYNKLPPRGEIGIFNRSHYENVLITRVHPEFLLNENLPDVHATNDITTEFWERRYRQIRDFEQTLTENGTTIIKFFLHLSKDEQKKRFMERIRKPAKNWKFSSADIRERQYWDDYQHAYEQAMRATSTEEAPWYIIPADNKWFTHVAIGNIIVETLQQMNIQMPEISSEEKDALKKAKKKLQNE
B5: enzyme (Mortierella alpina, UniProt U5Y6A8); chain MAPPHVVDEQVRRRIVVEDEIQSKKQFERNYVPMDFTIKEIRDAIPAHLFIRDTTKSILHVVKDLVTIAIVFYCATFIETLPSLALRVPAWITYWIIQGTVMVGPWILAHECGHGAFSDSKTINTIFGWVLHSALLVPYQAWAMSHSKHHKGTGSMSKDVVFIPATRSYKGLPPLEKPAAEEEVLEQEHHHHEESIFAETPIYTLGALFFVLTLGWPLYLIMNFSGHEAPHWVNHFQTVAPLYEPHQRKNIFYSNCGIVAMGSILTYLSMVFSPLTVFMYYGIPYLGVNAWIVCITYLQHTDPKVPHFRDNEWNFQRGAACTIDRSFGTIVNHLHHHIGDSHQCHHMFSQMPFYNAVEATKHLKAKLGKYYIFDDTPIAKALYRNWRECKFVEDEGDVVFYKH
B6: ltaE H83N (Escherichia coli, UniProt P75823); chain MIDLRSDTVTRPSRAMLEAMMAAPVGDDVYGDDPTVNALQDYAAELSGKEAAIFLPTGTQANLVALLSHCERGEEYIVGQAANNYLFEAGGAAVLGSIQPQPIDAAADGTLPLDKVAMKIKPDDIHFARTKLLSLENTHNGKVLPREYLKEAWEFTRERNLALHVDGARIFNAVVAYGCELKEITQYCDSFTICLSKGLGTPVGSLLVGNRDYIKRAIRWRKMTGGGMRQSGILAAAGIYALKNNVARLQEDHDNAAWMAEQLREAGADVMRQDTNMLFVRVGEENAAALGEYMKARNVLINASPIVRLVTHLDVSREQLAEVAAHWRAFLAR
B7: YeiR (Escherichia coli, UniProt P33030); chain MTRTNLITGFLGSGKTTSILHLLAHKDPNEKWAVLVNEFGEVGIDGALLADSGALLKEIPGGCMCCVNGLPMQVGLNTLLRQGKPDRLLIEPTGLGHPKQILDLLTAPVYEPWIDLRATLCILDPRLLLDEKSASNENFRDQLAAADIIVANKSDRTTPESEQALQRWWQQNGGDRQLIHSEHGKVDGHLLDLPRRNLAELPASAAHSHQHVVKKGLAALSLPEHQRWRRSLNSGQGYQACGWIFDADTVFDTIGILEWARLAPVERVKGVLRIPEGLVRINRQGDDLHIETQNVAPPDSRIELISSSEADWNALQSALLKLRLATTA
B8: PduO F112A (Limosilactobacillus reuteri, UniProt Q50EJ2); chain MKIYTKNGDKGQTRIIGKQILYKNDPRVAAYGEVDELNSWVGYTKSLINSHTQVLSNELEEIQQLLFDCGHDLATPADDERHSFKFKQEQPTVWLEEKIDNYTQVVPAVKKAILPGGTQLASALHVARTITRRAERQIVQLMREEQINQDVLIFINRLSDYFFAAARYANYLEQQPDMLYRNSKDVFR
B9: Cop6 (Coprinopsis cinerea, UniProt A8NCK5); chain MPAALPYNVSRDNKWDIKKIIQDFFKRCDVPYQVIPYDTELWNACLKRAKEKGYPVEPDSPMSLYRSFKVGVVITRTSYGHIQDYEILIWVATFTAFVTYADDAFQEDIQHLHSFARTFLQNEKHEHPVLEAFAQFLRESSIRFSHFVANTVVSSALRFMMSIALEFEGQNVSVSTEAREYPGYIRILSGLSDIYALFAFPMDLPRSTYIQAFPEQIDYINGTNDLLSFYKEELDCETVNFISAAATSQQVSKLEVLRNAAEKAAYSYDVVVNVLKPYPEALAAWKSFARGFCYFHTSSPRYRLGEMFHDFEHDLVCKCASCTEI
UniProt P9WEW1, sequence (whole entry, looked up): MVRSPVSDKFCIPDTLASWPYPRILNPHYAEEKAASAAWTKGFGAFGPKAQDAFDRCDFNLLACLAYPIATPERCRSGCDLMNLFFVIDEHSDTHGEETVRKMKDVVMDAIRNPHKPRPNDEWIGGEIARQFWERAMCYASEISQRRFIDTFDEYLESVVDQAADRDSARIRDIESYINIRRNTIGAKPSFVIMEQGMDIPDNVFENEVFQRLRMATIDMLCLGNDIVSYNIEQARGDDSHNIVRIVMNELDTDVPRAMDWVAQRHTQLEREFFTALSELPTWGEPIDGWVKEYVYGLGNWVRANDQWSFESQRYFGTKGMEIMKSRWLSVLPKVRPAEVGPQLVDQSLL
UniProt P22106, sequence (whole entry, looked up): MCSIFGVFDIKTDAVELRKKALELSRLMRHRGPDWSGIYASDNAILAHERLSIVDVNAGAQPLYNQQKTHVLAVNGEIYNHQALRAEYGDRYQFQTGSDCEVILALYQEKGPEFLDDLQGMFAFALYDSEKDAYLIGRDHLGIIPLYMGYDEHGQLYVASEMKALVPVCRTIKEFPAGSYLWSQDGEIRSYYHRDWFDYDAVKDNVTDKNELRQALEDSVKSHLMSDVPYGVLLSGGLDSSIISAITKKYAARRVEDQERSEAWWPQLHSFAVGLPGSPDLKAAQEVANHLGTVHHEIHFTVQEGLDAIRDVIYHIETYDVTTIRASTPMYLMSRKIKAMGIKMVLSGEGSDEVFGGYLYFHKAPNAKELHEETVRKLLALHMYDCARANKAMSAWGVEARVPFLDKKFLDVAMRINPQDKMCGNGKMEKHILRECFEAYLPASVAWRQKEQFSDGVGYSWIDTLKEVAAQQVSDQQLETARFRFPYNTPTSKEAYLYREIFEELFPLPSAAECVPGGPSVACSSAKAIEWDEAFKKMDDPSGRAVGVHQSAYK
UniProt P76043, sequence (whole entry, looked up): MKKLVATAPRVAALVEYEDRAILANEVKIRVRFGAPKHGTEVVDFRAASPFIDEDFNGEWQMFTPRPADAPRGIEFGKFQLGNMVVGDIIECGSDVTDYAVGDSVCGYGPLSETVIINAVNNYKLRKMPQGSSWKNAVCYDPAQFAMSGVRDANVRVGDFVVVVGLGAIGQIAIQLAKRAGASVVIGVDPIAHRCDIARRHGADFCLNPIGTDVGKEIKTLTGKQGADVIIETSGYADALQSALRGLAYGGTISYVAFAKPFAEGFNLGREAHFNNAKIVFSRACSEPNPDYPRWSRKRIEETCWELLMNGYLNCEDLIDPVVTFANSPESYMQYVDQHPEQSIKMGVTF
UniProt P45370, sequence (whole entry, looked up): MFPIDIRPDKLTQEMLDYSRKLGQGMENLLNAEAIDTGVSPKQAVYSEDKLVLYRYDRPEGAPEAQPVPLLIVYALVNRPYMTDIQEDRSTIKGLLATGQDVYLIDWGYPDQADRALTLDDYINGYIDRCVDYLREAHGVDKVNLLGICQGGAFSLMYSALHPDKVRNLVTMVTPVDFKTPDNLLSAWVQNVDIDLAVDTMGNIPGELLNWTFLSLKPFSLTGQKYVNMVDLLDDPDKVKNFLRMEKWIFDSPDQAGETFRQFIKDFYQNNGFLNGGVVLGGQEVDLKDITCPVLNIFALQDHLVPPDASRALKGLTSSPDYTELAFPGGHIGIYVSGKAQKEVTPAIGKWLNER
UniProt Q9WXT2, sequence (whole entry, looked up): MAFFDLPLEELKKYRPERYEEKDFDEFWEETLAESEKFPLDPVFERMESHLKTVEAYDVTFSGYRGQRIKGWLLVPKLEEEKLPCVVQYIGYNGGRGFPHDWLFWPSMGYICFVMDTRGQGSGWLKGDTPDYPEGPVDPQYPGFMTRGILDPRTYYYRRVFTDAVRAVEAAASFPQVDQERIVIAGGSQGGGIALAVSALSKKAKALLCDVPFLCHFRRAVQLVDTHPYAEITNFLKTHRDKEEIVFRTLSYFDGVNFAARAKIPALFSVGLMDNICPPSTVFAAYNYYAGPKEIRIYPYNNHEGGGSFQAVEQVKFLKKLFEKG
UniProt P49419, sequence (whole entry, looked up): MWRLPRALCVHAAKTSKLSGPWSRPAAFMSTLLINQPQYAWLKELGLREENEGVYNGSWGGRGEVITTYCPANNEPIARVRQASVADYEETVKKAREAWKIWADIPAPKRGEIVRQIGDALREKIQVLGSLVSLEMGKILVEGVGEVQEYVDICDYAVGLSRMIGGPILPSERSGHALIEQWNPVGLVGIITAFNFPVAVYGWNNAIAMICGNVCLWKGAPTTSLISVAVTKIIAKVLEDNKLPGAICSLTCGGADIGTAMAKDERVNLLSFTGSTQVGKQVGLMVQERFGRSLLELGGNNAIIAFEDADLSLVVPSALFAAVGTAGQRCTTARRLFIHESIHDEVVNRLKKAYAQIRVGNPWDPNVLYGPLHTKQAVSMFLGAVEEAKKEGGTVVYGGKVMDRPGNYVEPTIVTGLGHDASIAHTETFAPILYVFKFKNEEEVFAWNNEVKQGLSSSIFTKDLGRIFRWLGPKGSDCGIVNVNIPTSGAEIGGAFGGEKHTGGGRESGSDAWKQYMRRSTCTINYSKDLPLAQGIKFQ

`ALDH7A1 (Homo sapiens, UniProt P49419)` has a kcat/Km of 4700 ± 600 M⁻¹ s⁻¹ (N[C@@H](CCCC=O)C(=O)O; pH 8, 26 °C, added: NAD+ 2.5 mM).
`B1 (POLK)` has a kcat/Km of 16.7 M⁻¹ s⁻¹ (Cc1cn([C@H]2C[C@H](O)[C@@H](COP(=O)(O)OP(=O)(O)OP(=O)(O)O)O2)c(=O)[nH]c1=O; pH 8, 37 °C, misinsertion opposite dT, added: Mg2+).
The kcat/Km of `B2 (enzyme)` is reported as 1230 M⁻¹ s⁻¹ (O=c1ccn([C@@H]2O[C@H](CO[P@@](=O)(O)O[P@@](=O)(O)O[C@H]3O[C@H](CO)[C@@H](O)[C@H](O)[C@H]3O)[C@@H](O)[C@H]2O)c(=O)[nH]1; pH 7.5, 25 °C).
`protein (Actinidia chinensis, UniProt H9M5U5)` has a kcat/Km of 300000 M⁻¹ s⁻¹ (CC(C)=CCC/C(C)=C/CC/C(C)=C/CO[P@@](=O)(O)OP(=O)(O)O; pH 7.5, room temperature, labelled compound, added: MgCl2 20 mM).
With `ycjQ (Escherichia coli, UniProt P76043)` the kcat/Km was 3100 ± 200 M⁻¹ s⁻¹ (CO[C@@H]1O[C@H](CO)[C@H](O)C(=O)[C@H]1O; pH 7, 30 °C, added: NADH 0.3 mM, MnCl2 0.5 mM).
`B3 (GTPBP3 A162P)` gave a kcat/Km of 170 M⁻¹ s⁻¹ (Nc1nc2c(ncn2[C@@H]2O[C@H](COP(=O)(O)OP(=O)(O)OP(=O)(O)O)[C@@H](O)[C@H]2O)c(=O)[nH]1; pH 8, 37 °C, KCl 300 mM).
`B4 (enzyme)` gave a kcat/Km of 14000 M⁻¹ s⁻¹ (Nc1nc2c(ncn2[C@@H]2O[C@H](COP(=O)(O)O)[C@@H](O)[C@H]2O)c(=O)[nH]1; pH 8, 30 °C).
`B5 (enzyme)` has a kcat/Km of 11700 M⁻¹ s⁻¹ (CCCCC/C=C\C/C=C\CCCCCCCC(=O)SCCNC(=O)CCNC(=O)[C@H](O)C(C)(C)COP(=O)(O)OP(=O)(O)OC[C@H]1O[C@@H](n2cnc3c(N)ncnc32)[C@H](O)[C@@H]1OP(=O)(O)O; pH 7.5, 28 °C).
`B6 (ltaE H83N)` has a kcat/Km of 750 M⁻¹ s⁻¹ (C[C@H](O)[C@H](N)C(=O)O; pH 7, 30 °C, potassium phosphate 20 mM, retro-aldol cleavage, added: PLP 500 µM).
For `protein (Stereum hirsutum, UniProt P9WEW1)`, the kcat/Km was 1950 ± 150 M⁻¹ s⁻¹ (CC(C)=CCC/C(C)=C/CC/C(C)=C/CO[P@@](=O)(O)OP(=O)(O)O; pH 8, NaCl 200 mM, added: FPP 1–100 µM).
`B7 (YeiR)` has a kcat/Km of 14 ± 6 M⁻¹ s⁻¹ (Nc1nc2c(ncn2[C@@H]2O[C@H](COP(=O)(O)OP(=O)(O)OP(=O)(O)O)[C@@H](O)[C@H]2O)c(=O)[nH]1; pH 7.5, 37 °C, apo, anaerobic).
With `enzyme (UniProt A0A7J5BGR1)` the kcat/Km was 73600 M⁻¹ s⁻¹ (C=CCc1ccc(O)c(OC)c1; pH 8, 25 °C).
`protein (Allochromatium vinosum, UniProt P45370)` has a kcat/Km of 892000 M⁻¹ s⁻¹ (CC[C@@H](O)CC(=O)SCCNC(=O)CCNC(=O)[C@H](O)C(C)(C)COP(=O)(O)OP(=O)(O)OC[C@H]1O[C@@H](n2cnc3c(N)ncnc32)[C@H](O)[C@@H]1OP(=O)(O)O; pH 7.8, 30 °C).
`STH1425 (Symbiobacterium thermophilum, UniProt Q67PI3)` has a kcat/Km of 9 ± 2 M⁻¹ s⁻¹ (O=C(O)C(=O)Cc1ccccc1; pH 9, 30 °C, reductive amination, added: NH4Cl 200 mM, NADPH 0.5 mM).
`B8 (PduO F112A)` has a kcat/Km of 170 ± 40 M⁻¹ s⁻¹ (Nc1ncnc2c1ncn2[C@@H]1O[C@H](COP(=O)(O)OP(=O)(O)OP(=O)(O)O)[C@@H](O)[C@H]1O; pH 8, 37 °C, anoxic, added: cob(I)alamin).
The kcat/Km of `axeA (Thermotoga maritima, UniProt Q9WXT2)` is reported as 583000 M⁻¹ s⁻¹ (CC(=O)Oc1ccc([N+](=O)[O-])cc1; pH 6.5, 50 °C, temperature uncertain, apparent).
The kcat/Km of `B9 (Cop6)` is reported as 88000 M⁻¹ s⁻¹ (CC(C)=CCC/C(C)=C/CC/C(C)=C/CO[P@@](=O)(O)OP(=O)(O)O; pH 8, 30 °C, added: MgCl2 10 mM).
The kcat/Km of `asnB (Escherichia coli, UniProt P22106)` is reported as 1200 M⁻¹ s⁻¹ (N[C@@H](CC(=O)O)C(=O)O; pH 8, 37 °C, apparent, added: L-glutamine 20 mM).

For quick reference, copied from above:
With `enzyme (UniProt A0A7J5BGR1)` the kcat/Km was 73600 M⁻¹ s⁻¹ (C=CCc1ccc(O)c(OC)c1; pH 8, 25 °C).
`protein (Allochromatium vinosum, UniProt P45370)` has a kcat/Km of 892000 M⁻¹ s⁻¹ (CC[C@@H](O)CC(=O)SCCNC(=O)CCNC(=O)[C@H](O)C(C)(C)COP(=O)(O)OP(=O)(O)OC[C@H]1O[C@@H](n2cnc3c(N)ncnc32)[C@H](O)[C@@H]1OP(=O)(O)O; pH 7.8, 30 °C).
`STH1425 (Symbiobacterium thermophilum, UniProt Q67PI3)` has a kcat/Km of 9 ± 2 M⁻¹ s⁻¹ (O=C(O)C(=O)Cc1ccccc1; pH 9, 30 °C, reductive amination, added: NH4Cl 200 mM, NADPH 0.5 mM).
